Published values of several laboratories.
Every numbered part comes from another study and shows a few of its results, in no order.
UniProt P23443, sequence (whole entry, looked up): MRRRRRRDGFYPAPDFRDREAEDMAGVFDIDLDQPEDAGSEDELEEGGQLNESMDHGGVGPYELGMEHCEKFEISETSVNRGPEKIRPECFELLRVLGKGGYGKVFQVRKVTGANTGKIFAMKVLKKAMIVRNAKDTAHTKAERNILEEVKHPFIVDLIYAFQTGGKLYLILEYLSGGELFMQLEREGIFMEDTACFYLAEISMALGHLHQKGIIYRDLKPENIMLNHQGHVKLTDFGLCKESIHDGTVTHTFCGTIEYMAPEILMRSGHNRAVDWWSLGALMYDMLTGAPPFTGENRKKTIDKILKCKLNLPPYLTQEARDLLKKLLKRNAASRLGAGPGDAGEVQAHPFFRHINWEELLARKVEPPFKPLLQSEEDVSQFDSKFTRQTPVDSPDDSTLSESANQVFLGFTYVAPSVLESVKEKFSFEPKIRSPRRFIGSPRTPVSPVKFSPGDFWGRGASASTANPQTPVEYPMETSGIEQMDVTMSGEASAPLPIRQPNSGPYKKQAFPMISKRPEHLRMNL
UniProt Q9HAZ1, sequence (whole entry, looked up): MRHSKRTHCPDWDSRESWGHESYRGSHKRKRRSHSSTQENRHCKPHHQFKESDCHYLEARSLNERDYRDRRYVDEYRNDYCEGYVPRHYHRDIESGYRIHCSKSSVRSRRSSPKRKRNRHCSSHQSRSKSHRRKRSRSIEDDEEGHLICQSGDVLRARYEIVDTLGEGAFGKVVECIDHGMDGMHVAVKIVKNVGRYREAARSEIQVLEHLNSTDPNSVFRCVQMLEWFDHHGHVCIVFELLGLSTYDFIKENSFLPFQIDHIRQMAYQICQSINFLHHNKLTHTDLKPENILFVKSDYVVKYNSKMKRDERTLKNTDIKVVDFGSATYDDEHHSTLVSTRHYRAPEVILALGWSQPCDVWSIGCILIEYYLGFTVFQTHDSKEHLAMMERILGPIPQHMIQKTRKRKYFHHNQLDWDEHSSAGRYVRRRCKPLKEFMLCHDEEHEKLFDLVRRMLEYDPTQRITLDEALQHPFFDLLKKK
UniProt P00519, sequence (whole entry, unmodified, looked up): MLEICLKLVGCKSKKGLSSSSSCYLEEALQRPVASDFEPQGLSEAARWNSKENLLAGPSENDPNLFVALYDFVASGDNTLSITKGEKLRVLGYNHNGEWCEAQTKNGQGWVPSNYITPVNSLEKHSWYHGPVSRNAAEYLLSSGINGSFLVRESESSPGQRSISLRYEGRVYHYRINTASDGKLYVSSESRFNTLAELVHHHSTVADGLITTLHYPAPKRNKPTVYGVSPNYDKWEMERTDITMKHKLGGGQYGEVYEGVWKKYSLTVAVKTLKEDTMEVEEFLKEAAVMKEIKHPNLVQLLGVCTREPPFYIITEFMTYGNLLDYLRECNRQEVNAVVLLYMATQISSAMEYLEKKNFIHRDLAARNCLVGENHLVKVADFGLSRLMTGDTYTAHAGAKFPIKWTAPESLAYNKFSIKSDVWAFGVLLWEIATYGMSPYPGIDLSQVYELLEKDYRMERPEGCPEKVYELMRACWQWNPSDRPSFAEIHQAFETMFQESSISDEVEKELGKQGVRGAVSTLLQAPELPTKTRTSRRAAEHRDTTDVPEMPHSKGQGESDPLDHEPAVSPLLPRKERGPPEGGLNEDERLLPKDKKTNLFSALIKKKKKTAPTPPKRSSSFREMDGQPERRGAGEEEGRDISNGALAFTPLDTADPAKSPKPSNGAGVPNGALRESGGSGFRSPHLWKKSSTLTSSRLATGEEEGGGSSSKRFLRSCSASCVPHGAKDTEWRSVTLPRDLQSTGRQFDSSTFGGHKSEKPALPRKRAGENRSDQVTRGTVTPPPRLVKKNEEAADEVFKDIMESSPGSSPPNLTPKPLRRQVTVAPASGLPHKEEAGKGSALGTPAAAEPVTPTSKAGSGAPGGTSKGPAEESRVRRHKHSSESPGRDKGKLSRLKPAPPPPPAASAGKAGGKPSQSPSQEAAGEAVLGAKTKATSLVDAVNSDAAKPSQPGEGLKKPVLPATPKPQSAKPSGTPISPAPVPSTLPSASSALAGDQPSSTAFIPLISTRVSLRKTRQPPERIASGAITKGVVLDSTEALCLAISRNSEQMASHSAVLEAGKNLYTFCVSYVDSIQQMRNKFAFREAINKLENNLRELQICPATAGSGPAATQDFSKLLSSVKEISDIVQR
UniProt Q13163, sequence (whole entry, looked up): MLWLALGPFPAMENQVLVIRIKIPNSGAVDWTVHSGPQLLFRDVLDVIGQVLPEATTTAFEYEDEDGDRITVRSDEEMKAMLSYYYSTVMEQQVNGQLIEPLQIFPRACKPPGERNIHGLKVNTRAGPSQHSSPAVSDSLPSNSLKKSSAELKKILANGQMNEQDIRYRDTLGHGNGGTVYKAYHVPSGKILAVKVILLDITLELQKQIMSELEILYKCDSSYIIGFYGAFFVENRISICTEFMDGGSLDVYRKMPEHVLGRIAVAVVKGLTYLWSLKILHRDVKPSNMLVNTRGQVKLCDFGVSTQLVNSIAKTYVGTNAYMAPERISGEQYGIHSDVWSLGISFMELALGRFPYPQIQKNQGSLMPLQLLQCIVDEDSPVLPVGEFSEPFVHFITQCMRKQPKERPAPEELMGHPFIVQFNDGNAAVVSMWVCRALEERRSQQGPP
UniProt O75676, sequence (whole entry, looked up): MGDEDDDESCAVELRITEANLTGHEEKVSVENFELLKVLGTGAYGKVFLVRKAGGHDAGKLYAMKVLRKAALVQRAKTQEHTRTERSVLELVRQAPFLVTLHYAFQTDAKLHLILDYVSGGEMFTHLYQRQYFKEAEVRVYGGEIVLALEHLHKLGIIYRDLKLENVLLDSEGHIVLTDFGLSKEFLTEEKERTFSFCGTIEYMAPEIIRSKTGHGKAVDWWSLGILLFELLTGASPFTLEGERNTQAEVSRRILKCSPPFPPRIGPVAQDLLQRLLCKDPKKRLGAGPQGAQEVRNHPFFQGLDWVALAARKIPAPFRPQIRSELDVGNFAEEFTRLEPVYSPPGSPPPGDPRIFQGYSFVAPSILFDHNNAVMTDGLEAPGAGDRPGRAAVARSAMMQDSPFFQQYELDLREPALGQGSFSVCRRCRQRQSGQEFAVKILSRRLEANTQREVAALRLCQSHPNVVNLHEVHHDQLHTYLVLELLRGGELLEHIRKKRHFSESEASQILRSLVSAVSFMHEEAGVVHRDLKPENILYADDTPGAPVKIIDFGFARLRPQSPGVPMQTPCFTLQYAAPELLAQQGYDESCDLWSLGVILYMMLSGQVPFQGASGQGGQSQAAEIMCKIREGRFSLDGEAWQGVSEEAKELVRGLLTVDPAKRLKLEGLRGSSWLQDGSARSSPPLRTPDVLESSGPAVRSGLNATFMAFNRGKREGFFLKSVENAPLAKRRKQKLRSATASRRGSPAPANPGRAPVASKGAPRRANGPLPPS
UniProt P21127, sequence (whole entry, looked up): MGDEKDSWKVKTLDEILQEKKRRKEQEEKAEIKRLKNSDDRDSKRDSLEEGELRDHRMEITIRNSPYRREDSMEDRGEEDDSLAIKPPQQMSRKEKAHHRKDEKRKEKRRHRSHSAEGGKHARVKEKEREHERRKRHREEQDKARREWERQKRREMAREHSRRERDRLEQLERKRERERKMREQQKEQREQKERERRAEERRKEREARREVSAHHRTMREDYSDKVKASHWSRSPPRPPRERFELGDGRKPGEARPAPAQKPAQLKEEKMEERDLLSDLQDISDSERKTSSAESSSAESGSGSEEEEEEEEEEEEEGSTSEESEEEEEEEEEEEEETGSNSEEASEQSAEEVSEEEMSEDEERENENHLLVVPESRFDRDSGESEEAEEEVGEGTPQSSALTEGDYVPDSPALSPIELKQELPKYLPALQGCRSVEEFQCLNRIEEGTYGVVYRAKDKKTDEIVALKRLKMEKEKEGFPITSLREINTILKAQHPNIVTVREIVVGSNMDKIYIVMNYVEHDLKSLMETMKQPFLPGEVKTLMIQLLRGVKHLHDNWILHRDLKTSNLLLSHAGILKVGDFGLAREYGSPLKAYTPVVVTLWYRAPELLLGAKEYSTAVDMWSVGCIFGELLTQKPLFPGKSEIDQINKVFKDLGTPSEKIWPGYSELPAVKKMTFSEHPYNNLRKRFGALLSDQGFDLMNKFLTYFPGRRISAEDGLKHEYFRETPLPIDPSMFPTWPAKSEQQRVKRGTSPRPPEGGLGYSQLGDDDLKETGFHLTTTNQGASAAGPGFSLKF
UniProt Q8TBX8, sequence (whole entry, looked up): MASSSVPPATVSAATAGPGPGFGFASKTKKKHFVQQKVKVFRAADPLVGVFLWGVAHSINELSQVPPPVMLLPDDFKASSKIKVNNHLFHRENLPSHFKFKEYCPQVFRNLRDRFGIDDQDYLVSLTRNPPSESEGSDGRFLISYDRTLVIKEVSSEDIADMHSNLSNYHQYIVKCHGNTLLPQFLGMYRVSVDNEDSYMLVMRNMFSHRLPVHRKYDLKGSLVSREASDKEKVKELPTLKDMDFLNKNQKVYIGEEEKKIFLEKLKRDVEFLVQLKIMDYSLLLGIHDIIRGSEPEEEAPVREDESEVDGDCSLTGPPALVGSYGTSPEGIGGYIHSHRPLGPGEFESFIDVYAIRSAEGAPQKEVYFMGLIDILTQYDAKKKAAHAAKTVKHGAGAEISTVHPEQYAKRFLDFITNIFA

Sample 1
Cell line: mouse MPNST tumor cells
Technique: high-content nuclear imaging
Item: cell number
Concentration: 10 µM
Time: 12 h
Setting: mean of 2 replicates
Relative to: plate mean
Direction: higher = more cells
Measurement: nuclei count
SMILES = Cc1[nH]cnc1CN1CCc2c(c3ccccc3n2C)C1=O; result = 1.13 z-score
SMILES = O=C(COCC(=O)Nc1ccc(Cl)cc1C(=O)O)Nc1cccc(-c2ccoc2)c1; result = 2.35 z-score
SMILES = CC(=O)Nc1ccc(C(=O)Nc2ccccc2N)cc1; result = 1.36 z-score
SMILES = CCCCN(CCCC)CC(O)c1cc(Cl)cc2c1-c1ccc(Cl)cc1/C2=C/c1ccc(Cl)cc1 (stereo not shown); result = 2.32 z-score
SMILES = Cc1cc(Nc2nc(N[C@@H](C)c3ncc(F)cn3)ncc2Cl)[nH]n1; result = -2.17 z-score

Sample 2
SMILES: CS(=O)(=O)c1cc(C2(NC(=O)c3cncc4c3cnn4-c3ccc(F)cc3)CC2)ccn1
Effect on: cell-free assay
Technique: competition with immobilised ligand
Concentration: 1 µM
Measurement: remaining binding
target = MAP2K5 (Homo sapiens, UniProt Q13163); result = 80%
target = Ribosomal protein S6 kinase alpha-4, C-terminal kinase domain (RPS6KA4, Homo sapiens, UniProt O75676); result = 81%
target = IKBKE (Homo sapiens, UniProt Q14164); result = 100%
target = RPS6KB1 (Homo sapiens, UniProt P23443); result = 100%
target = CHEK2 (Homo sapiens, UniProt O96017); result = 100%
target = PIP4K2C (Homo sapiens, UniProt Q8TBX8); result = 100%
target = MAP3K1 (Homo sapiens, UniProt Q13233); result = 100%
target = Tyrosine-protein kinase ABL1, phosphorylated (ABL1, Homo sapiens, UniProt P00519, F317L); result = 68%
target = WNK3 (Homo sapiens, UniProt Q9BYP7); result = 100%
target = DYRK1A (Homo sapiens, UniProt Q13627); result = 81%
target = CLK4 (Homo sapiens, UniProt Q9HAZ1); result = 100%
target = PLK2 (Homo sapiens, UniProt Q9NYY3); result = 70%
target = CDK11B (Homo sapiens, UniProt P21127); result = 81%

Sample 3
Target: PABPC1L2, full length, GST fusion (mouse, UniProt A0ABA7IW68)
Technique: RNAcompete
Form: RNA
Medium: in vitro
Concentration: 20 nM
Setting: 7-mer, probes averaged, single round
Relative to: mean of 7-mers
Direction: higher = stronger binding
Measurement: 7-mer Z-score
Residues (chain): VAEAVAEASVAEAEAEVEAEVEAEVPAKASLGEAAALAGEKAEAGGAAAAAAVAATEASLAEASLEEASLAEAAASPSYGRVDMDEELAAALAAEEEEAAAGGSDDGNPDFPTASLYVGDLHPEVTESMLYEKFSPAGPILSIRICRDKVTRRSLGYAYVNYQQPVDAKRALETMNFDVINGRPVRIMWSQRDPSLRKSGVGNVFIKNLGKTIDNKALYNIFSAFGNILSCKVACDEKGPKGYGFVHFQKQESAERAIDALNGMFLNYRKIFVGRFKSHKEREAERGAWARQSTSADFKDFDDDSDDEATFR
Oligonucleotide = CCAGGCC; result = -0.142
Oligonucleotide = AAUGACU; result = 0.0841
Oligonucleotide = CUCGAUU; result = -0.307
Oligonucleotide = AGGCCAU; result = -0.0246
Oligonucleotide = GCCAGAU; result = -0.121
Oligonucleotide = CAUCUGU; result = -0.4
Oligonucleotide = UGAACUA; result = 0.000733
Oligonucleotide = AUGUAAU; result = -0.0246

Sample 4
Cell line: A-375
Concentration: 100 µM
Time: 36 h
Measurement: viability
Compound = Nc1nc2c(ncn2CCC(CO)CO)c(=O)[nH]1; result = 95%
Compound = CCCCCNC(=N)N/N=C/c1c[nH]c2ccc(OC)cc12; result = 0.209%
Compound = [H]/N=C(/N)N[C@H]1[C@H](O)[C@@H](O)[C@H](O[C@@H]2O[C@@H](C)[C@](O)(C=O)[C@H]2O[C@@H]2O[C@@H](CO)[C@H](O)[C@@H](O)[C@@H]2NC)[C@@H](N/C(N)=N\[H])[C@@H]1O; result = 109%
Compound = O=C(O)C1=CO[C@@H](O[C@@H]2O[C@H](CO)[C@@H](O)[C@H](O)[C@H]2O)[C@@H]2C(CO)=CC[C@H]12; result = 95.4%

Other studies, line by line
Substance = PhoQ, residues 284 288 289 292 302 303 SVTLVV; target = PhoP, residues 12 14 15 18 19 QWHVF (Escherichia coli, UniProt P23836); test = Sort-seq, item: YFP reporter; system = E. coli; setting = PhoQ-PhoP variant library, together with: 10 µM Mg2+; scale = relative to: high Mg2+ state, higher = stronger signaling; measurement = fold induction; result = 2.96

For quick reference, copied from above (sample 2):
target = RPS6KB1 (Homo sapiens, UniProt P23443); result = 100%
target = CHEK2 (Homo sapiens, UniProt O96017); result = 100%
